Experimental data pooled from the literature.
Lines come from different studies, so protocols differ. ± marks the error that the study gave.

SMILES | organism | assay | test system | conditions | endpoint | result
N=C(N)c1ccc(OCCCCCOc2ccc(C(=N)N)cc2)cc1 | Leishmania tarentolae | viability, resazurin | promastigotes, Schneider's medium | 48 h, 26 °C, with: 10% FCS | IC50 | 780 ± 370 nM
COc1cccc(-n2cc(Cn3c(C(=O)O)nc4ccccc4c3=O)nn2)c1 | Candida tropicalis | microbial growth, broth dilution | ATCC750 | 24 h | IC50 | 444 µg/mL
Cc1cc(C)cc(S(=O)(=O)c2c(C(=O)NCCNS(=O)(=O)c3ccc(F)cc3)[nH]c3ccc(Cl)cc23)c1 | HIV-1 | viral replication | MT-4, IIIB | – | EC50 | 28 ± 3.6 nM
CCOC(=O)c1nc2ccccc2c(=O)n1Cc1cn(-c2cccc(F)c2)nn1 | Candida tropicalis | microbial growth, broth dilution | ATCC750 | 24 h | IC50 | 182 µg/mL
CC1(C)S[C@@H]2[C@H](NC(=O)[C@H](N)c3ccccc3)C(=O)N2[C@H]1C(=O)O | Bacillus subtilis | – | IFO 3007 | 100 µg/disc, 24 h | inhibition zone diameter | 21 mm
Cc1cc(C)cc(S(=O)(=O)c2c(C(=O)NCCCNS(=O)(=O)c3ccc(F)cc3)[nH]c3ccc(Cl)cc23)c1 | HIV-1 | viral replication | MT-4, IIIB | – | EC50 | 38 ± 6.9 nM
CCOC(=O)c1nc2ccccc2c(=O)n1Cc1cn(-c2ccccc2Cl)nn1 | Candida tropicalis | microbial growth, broth dilution | ATCC750 | 24 h | IC50 | 65.6 µg/mL
CC1(C)S[C@@H]2[C@H](NC(=O)[C@H](N)c3ccc(O)cc3)C(=O)N2[C@H]1C(=O)O | Enterococcus | – | community-acquired pneumonia patients | Fine score 70 or more | sensitive strains | 100%
Nc1nc2c(ncn2COCCO)c(=O)[nH]1 | human alphaherpesvirus 1 | viral GFP expression, live cell imaging | primary keratinocytes, six donors, K26, GFP-expressing | peak infection time | IC50 | 67700 ± 18200 nM
CN(C)CCCn1c(=O)c2ccc3c(=O)n(CCCN(C)C)c(=O)c4c5[nH]c6ccccc6[nH]c5c(c1=O)c2c34 | HIV-1 | – | TZM-bl, BaL | activity with cytotoxicity below 80% | therapeutic window | 15.6 to 250 nM
Cc1ccc(-n2cc(Cn3c(C(=O)O)nc4ccccc4c3=O)nn2)cc1 | Candida tropicalis | microbial growth, broth dilution | ATCC750 | 24 h | IC50 | 13.5 µg/mL
CNC1=C([N+](=O)[O-])C2(C(=O)Nc3ccccc32)c2c(c3ccccc3oc2=O)O1 (centres unmarked) | Salmonella enterica | microbial growth | TYPHIMURIUM | 250 µg/mL, 24 h | inhibition | 31%
CC[C@H]1OC(=O)[C@H](C)[C@@H](O[C@H]2C[C@@](C)(OC)[C@@H](O)[C@H](C)O2)[C@H](C)[C@@H](O[C@@H]2O[C@H](C)C[C@H](N(C)C)[C@H]2O)[C@](C)(O)C[C@@H](C)CN(C)[C@H](C)[C@@H](O)[C@]1(C)O | coagulase-negative Staphylococcus | – | community-acquired pneumonia patients | Fine score 70 or more | sensitive strains | 75%
Cc1cc(C)cc(S(=O)(=O)c2c(C(=O)NCCCNS(=O)(=O)c3ccccc3)[nH]c3ccc(Cl)cc23)c1 | HIV-1 | viral replication | MT-4, IIIB | – | EC50 | 29 ± 3.6 nM
CCc1cc(CC)n(C(N)=S)n1 | Staphylococcus epidermidis | broth microdilution, agar subculture | ATCC 12228 | 24 h | MBC | > 1000 µg/mL
O=c1c(O)c(-c2cc(O)c(O)c(O)c2)oc2cc(O)cc(O)c12 | human alphaherpesvirus 1 | viral replication | HEp-2, F | 24 h | IC50 | 6300 ± 200 nM
COCCSc1nnc(C23CC4CC(CC(C4)C2)C3)n1-c1ccccc1 | Bacillus subtilis | – | IFO 3007 | 200 µg/disc, 24 h, 37 °C | inhibition zone diameter | < 10 mm
CC[C@H]1OC(=O)[C@H](C)[C@@H](O[C@H]2C[C@@](C)(OC)[C@@H](O)[C@H](C)O2)[C@H](C)[C@@H](O[C@@H]2O[C@H](C)C[C@H](N(C)C)[C@H]2O)[C@](C)(O)C[C@@H](C)C(=O)[C@H](C)[C@@H](O)[C@]1(C)O | coagulase-negative Staphylococcus | – | community-acquired pneumonia patients | Fine score below 70 | sensitive strains | 66.7%
CCOC(=O)c1nc2ccccc2c(=O)n1Cc1cn(-c2ccc(C)cc2)nn1 | Candida tropicalis | microbial growth, broth dilution | ATCC750 | 24 h | IC50 | 12.4 µg/mL

SMILES | organism | assay | test system | conditions | endpoint | result
Cc1cc(C)cc(S(=O)(=O)c2c(C(=O)NCCCCNS(=O)(=O)c3cccs3)[nH]c3ccc(Cl)cc23)c1 | HIV-1 | viral replication | MT-4, IIIB | – | EC50 | 45 ± 17 nM
CNC1=C([N+](=O)[O-])C2(C(=O)Nc3ccc(Cl)cc32)C2=C(CC(C)(C)CC2=O)O1 (centres unmarked) | Salmonella enterica | microbial growth | TYPHIMURIUM | 250 µg/mL, 24 h | inhibition | 58.5%
CCn1cc(C(=O)Nc2ncccc2O)c(=O)c2cc(F)c(N3CCN(C(=O)c4ccco4)CC3)cc21 | Mycolicibacterium smegmatis | microbial growth | – | 50 µM | inhibition | ~10%
CCC(=O)O[C@H]1[C@H](C)O[C@@H](O[C@H]2[C@H](N(C)C)[C@@H](O)[C@H](O[C@H]3[C@@H](CC=O)C[C@@H](C)[C@@H](O)/C=C/C=C/C[C@@H](C)OC(=O)C[C@@H](O)[C@@H]3OC)O[C@@H]2C)C[C@@]1(C)O | Bacillus subtilis | – | ATCC 6633, DMSO-methanol | 50 µL of 2.0 mM, 24 h, 37 °C, 9 mm well | inhibition zone diameter | 29 mm
CC(C)C[C@H](NC(=O)[C@H](Cc1ccccc1)NC(=O)c1cnccn1)B(O)O | Schistosoma mansoni | Suc-LLVY-AMC in extracts | – | 1 µM, 24 h, living worms | decrease in proteasome β5 activity | 76%
Oc1cccc2ccccc12 | Oryzias latipes | – | female | dose not given, 21 d | hepatic vitellogenin | increased
O=C(O)CSc1nnc(C23CC4CC(CC(C4)C2)C3)n1-c1ccccc1 | Bacillus subtilis | – | IFO 3007 | 200 µg/disc, 24 h, 37 °C | inhibition zone diameter | 18 mm
CNC1=C([N+](=O)[O-])C2(C(=O)Nc3ccc([N+](=O)[O-])cc32)C2=C(CC(C)(C)CC2=O)O1 (centres unmarked) | Salmonella enterica | microbial growth | TYPHIMURIUM | 250 µg/mL, 24 h | inhibition | 61%
Cc1noc(/C=C/c2ccccn2)c1[N+](=O)[O-] | Schistosoma mansoni | motility, automated imaging | adult female worms | 48 h | EC50 | ~6000 nM
CNC1=C([N+](=O)[O-])C2(C(=O)Nc3ccccc32)C2=C(CC(C)(C)CC2=O)O1 (centres unmarked) | Salmonella enterica | microbial growth | TYPHIMURIUM | 250 µg/mL, 24 h | inhibition | 57.7%
Cc1cc(C)cc(S(=O)(=O)c2c(C(=O)NCCNS(=O)(=O)c3ccccc3F)[nH]c3ccc(Cl)cc23)c1 | HIV-1 | viral replication | MT-4, IIIB | – | EC50 | 18 ± 3.6 nM
Oc1c(Br)cc(Br)c2nc3ccccc3nc12 | Enterococcus | Calgary Biofilm Device | VRE 700221 | biofilm | MBC | 18.8 µM
O=C(O)c1nc2ccccc2c(=O)n1Cc1cn(-c2ccc([N+](=O)[O-])cc2)nn1 | Candida tropicalis | microbial growth, broth dilution | ATCC750 | 24 h | IC50 | 337 µg/mL
Cc1cc(C)cc(S(=O)(=O)c2c(C(=O)NCCNS(=O)(=O)c3ccc(C#N)cc3)[nH]c3ccc(Cl)cc23)c1 | HIV-1 | viral replication | MT-4, IIIB | – | EC50 | 65 ± 19 nM
NC(=O)c1ncn([C@@H]2O[C@H](CO)[C@@H](O)[C@H]2O)n1 | tobacco mosaic virus | half-leaf method | tobacco | 500 µg/mL, 24 h before inoculation | protective activity | 48.6 ± 2.5%
O=C(O)c1ccc(-n2cc(Cn3c(C(=O)O)nc4ccccc4c3=O)nn2)cc1 | Candida tropicalis | microbial growth, broth dilution | ATCC750 | 24 h | IC50 | 457 µg/mL
O=C(C1CCCCC1)N1CC(=O)N2CCc3ccccc3C2C1 (racemic) | Schistosoma mansoni | current clamp | adult males | 10 µM, 10 min | trans-surface potential | -3.9 ± 0.6 mV
Cc1ccccc1-n1cc(Cn2c(C(=O)O)nc3ccccc3c2=O)nn1 | Candida tropicalis | microbial growth, broth dilution | ATCC750 | 24 h | IC50 | 233 µg/mL
CCOC(=O)CSc1nnc(C23CC4CC(CC(C4)C2)C3)n1-c1ccccc1 | Bacillus subtilis | – | IFO 3007 | 200 µg/disc, 24 h, 37 °C | inhibition zone diameter | 19 mm
